Assay results gathered from unrelated publications.
A part holds a random share of what one study measured.

Block 1 — method: RNA Bind-n-Seq; form: RNA; sample: in vitro; tested at: not given; relative to: input RNA pool; reading: higher = stronger binding; measurement: bound/input enrichment
Target: RING finger protein unkempt homolog, zinc fingers 1-6, GST-SBP tag (UNK, Homo sapiens, UniProt Q9C0B0, residues 30-357)
Setting: RNA with constant flanks, human and mouse sites, ends assumed
Constant ends, left off below: GGGAGUUCUACAGUCCGACGAUC … CAACAGAGGAUUGAGCAUCA
Construct (chain): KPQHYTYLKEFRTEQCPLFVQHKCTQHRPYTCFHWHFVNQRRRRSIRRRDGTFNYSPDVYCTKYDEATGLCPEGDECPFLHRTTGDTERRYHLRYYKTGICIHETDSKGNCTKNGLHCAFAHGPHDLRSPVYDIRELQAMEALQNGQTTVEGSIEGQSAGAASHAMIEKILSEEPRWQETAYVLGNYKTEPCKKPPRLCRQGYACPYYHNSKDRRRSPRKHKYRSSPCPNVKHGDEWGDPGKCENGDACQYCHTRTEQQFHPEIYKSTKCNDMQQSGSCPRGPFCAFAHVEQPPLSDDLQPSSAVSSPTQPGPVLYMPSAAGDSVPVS
CUACCUGAAGUGACUGAUGAGUAUAAAAAUGAUGUAAAAAACAGAUCUGUUUAUAUUAAAGGCUUCCCAACUGAUGCAACUCUUGAUGACAUAAAAGAAUGGUUAGAAGAUAAAGGUCAA: 0.273 ratio
GAAAGACAUGGUAUGCUGUCUUUGUGAUUAAUUUUGUGUCUAACUUUAAGUACUAUAUUUGGACUUAUUUAUUUGAUUGGGCUUAACUGAGUUGUAUAAAUUUUAUUUUCAUAUUAAGUC: 0.572 ratio
GUUCGGGGUAUUUUGUUGGGUGCUUUAGGAGGAGAGAAGAGGAGGACCUUGUCCUCAUCCUAGUAGUUUGGCUGGACUUGUACUGGCCGUUGGAAACCCCCAAGUACAUUUCCGUGUGGA: 0.572 ratio
CCAACCAGUCAAGCCCAAAUUGUGCAAGGUAUUACACCACAGACAAUCCAUGGUGUGCAAGCCAGUGGUCAAAAUAUAUCACAACAGGCUUUGCAAAAUCUUCAGUUGCAGCUGAAUCCU: 0.36 ratio
GCUAUCUAUGUCCAAGCACUGAUUUUUCGCCUGGAAGGAAAUAUCCAAGAAUCCCUAGAACUCUUUCAGACAUGUGCUGUUCUCAGCCCACAGUGUGCUGAUAAUCUCAAGCAGGUGGCC: 0.193 ratio
AGACCACGACUCCAGCUUAAACCUCGAACAGUCGCGACGCCCCUCAAUCAAGUAGCCAAUCCCAACUCUGCUAUCUUCGGGGGUGCCAGGCCUAGAGAGGAAGUCGUUCAAAAGGAGCAA: 0.0947 ratio
AUUGCAACAAAUGGAGAAAGUGCUGUAGUGCAAUUACCAAAAAAUGGCCCCAUUUAUGAUGUAGUUUGGAAUUCUAGUUCUACUGAGUUUUGUGCUGUAUAUGGUUUUAUGCCUGCCAAA: 0.367 ratio
UCAGCUUCGGUGGACUGCUCCUCUGAUUUCUAAGCCUCCAAUUGGGCCUCUUUGAUACAAAUAGAAGUCAGGUAUGUGACUUAAAUACUAAAAAUAUUAAUAUUCCCGUUUGAAUUCGAU: 1.22 ratio
AGCAAGGUGGUACAGAAGUUGGUCCUGCCCUUUGGGAGGUUGAACUACAUGCCCCUGGAGCAGCAAUUUAUGCCCUGCCUUGAGAGGAUCCUGGCUCGGGAAGCAGGGGUGGCACCCUUG: 0.102 ratio
UGCUGCUUCUGGCUGGCUGGCCUGGCUGUCAUGGCAGUGGGCAUCUGGACGCUGGCCCUCAAGAGUGACUACAUCAGCCUGCUGGCCUCAGGCACCUACCUGGCCACAGCCUACAUCCUG: 0.0723 ratio
UGUGUGAGUGUGUGCGCGAGUGUGCGCGCGCGCGUGUGAGAGAGAAAGGGCGAGAGAGAGGGGGACUCUUGUGUGAGGGAAAGAAAACAAUUUCUCCUGCUCUGCAGCUUCUGUUCAGCU: 0.117 ratio

Block 2 — method: protein-binding microarray; form: double-stranded DNA, one strand shown; sample: in vitro; tested at: 250 nM; setting: 60-bp whole probe; added: salmon DNA 0.4 mg/ml; relative to: random background probes; reading: higher = stronger binding; measurement: log fluorescence; constant ends, left off below: GCCTAGCAC … GTCTTGATTCGCTTGACGCTGCTG
Target: Interferon regulatory factor 7, full length, phosphomimetic (IRF7, Homo sapiens, UniProt Q92985, residues 1-503, S101K/S471D/S472D/S475D/S476D/S477D/S483D/S484D/S487D)
Target sequence (chain): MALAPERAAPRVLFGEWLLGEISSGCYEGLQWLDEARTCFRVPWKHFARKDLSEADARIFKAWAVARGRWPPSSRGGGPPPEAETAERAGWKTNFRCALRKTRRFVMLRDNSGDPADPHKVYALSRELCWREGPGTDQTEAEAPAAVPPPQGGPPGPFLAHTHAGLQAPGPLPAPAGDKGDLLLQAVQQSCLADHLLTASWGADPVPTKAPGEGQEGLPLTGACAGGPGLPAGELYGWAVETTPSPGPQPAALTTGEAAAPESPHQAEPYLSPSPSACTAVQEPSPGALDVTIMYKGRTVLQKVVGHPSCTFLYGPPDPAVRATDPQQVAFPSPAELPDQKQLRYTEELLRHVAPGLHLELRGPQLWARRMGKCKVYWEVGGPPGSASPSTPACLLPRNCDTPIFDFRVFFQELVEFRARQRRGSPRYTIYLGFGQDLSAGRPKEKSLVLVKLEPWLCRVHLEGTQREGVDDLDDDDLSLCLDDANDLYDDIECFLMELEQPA
GAAGATTTCGGGTTTCGAGACGTGCTA: 4.85 z-score
AGATGCCAAGAGGCATGATGGTGCTAG: -0.413 z-score
CCTCATCTTCCTCTGCCACAGTGCTAG: 0.902 z-score
GACTGTATCGGGTATCGGGACGTGCTA: -0.0412 z-score
TCATCAACCAGTTTTCTTACTGTGCTA: -0.0346 z-score
GACGGTCTCGGGATCGGGACGTGCTAG: 1.02 z-score
GACGATATCAGTACCGAGACGTGCTAG: 0.0777 z-score
AGTATTACCTCATCTTTCCCTGTGCTA: 0.652 z-score
GAATGTAACTCCTATCCAAGTGTGCTA: -0.011 z-score
TTAGGTCTCGGACTGGGTTAGTGCTAG: 0.462 z-score
GACGAAATCGGGTTTCGAGACGTGCTA: 3.28 z-score
TTAGGACTGCTATTGCTTTAGTGCTAG: -0.137 z-score
TTTGGACTGCTACTGCTTTAGTGCTAG: -0.811 z-score
ACAAGTTTTTATTTTCTGAAGTGCTAG: 1.32 z-score
TTAGGTATCGACACTGGGTTGGTGCTA: 0.0825 z-score
TTAGGTATCCATCTCCTTTAGTGCTAG: 0.0746 z-score
TGAGGTTTTCTAATGTTTTTGTGCTAG: -0.00335 z-score
TTAGGTATCGACTTTCGGTAAGTGCTA: 1.74 z-score
GACGGACTGCGGTTTCGGGACGTGCTA: 1.88 z-score
TTAGGACTGGGGAGTGGGTTAGTGCTA: -0.388 z-score
GACGGTTTCCTTCGCCTGACGTGCTAG: 0.824 z-score
GACGGTTTCGACTTGCGGGACGTGCTA: 12.8 z-score
TTAGGTTGCGACTTTCGGTTAGTGCTA: 1.57 z-score
GACGGTCACCTACTGCTGACGTGCTAG: -0.635 z-score
GACGGTTTCGGGACTGGGAACGTGCTA: 4.78 z-score

Block 3 — method: protein-binding microarray; form: hairpin DNA; sample: in vitro; tested at: not given; relative to: not given; reading: higher = stronger binding; measurement: median fluorescence
Target: Krueppel-like factor 3, full length (KLF3, Homo sapiens, UniProt P57682, residues 1-345)
Chain of UniProt P57682 (whole entry, looked up): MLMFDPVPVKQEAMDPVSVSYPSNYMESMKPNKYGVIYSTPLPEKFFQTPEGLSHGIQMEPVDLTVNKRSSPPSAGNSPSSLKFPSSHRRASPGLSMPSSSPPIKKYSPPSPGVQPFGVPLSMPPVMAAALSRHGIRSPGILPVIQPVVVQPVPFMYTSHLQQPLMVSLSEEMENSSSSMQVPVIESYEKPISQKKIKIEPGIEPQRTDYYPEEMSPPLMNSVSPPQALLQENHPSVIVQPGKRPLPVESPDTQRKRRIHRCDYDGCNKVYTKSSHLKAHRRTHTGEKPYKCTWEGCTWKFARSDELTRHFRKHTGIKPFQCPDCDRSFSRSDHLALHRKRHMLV
Setting: whole hairpin DNA, median over replicate spots
GAGGCCGGCCACGCCCAGCCTCCTGGCTGGGCGTGGCCGGCCTCACACTC (5mC at 37): 9330 a.u.
GAGGCCGACCATGCCCAGCCTCCTGGCTGGGCATGGTCGGCCTCACACTC: 8610 a.u.
GAGGCCGACCACGCCCAGCCTCCTGGCTGGGCGTGGTCGGCCTCACACTC (5mC at 9): 15000 a.u.
GAGGCCGCGCACGCCCAGCCTCCTGGCTGGGCGTGCGCGGCCTCACACTC (5mC at 8): 9730 a.u.
GAGGCCGACTGCGCCCAGCCTCCTGGCTGGGCGCAGTCGGCCTCACACTC: 8390 a.u.
GAGGCCCACCGCGCCCAGCCTCCTGGCTGGGCGCGGTGGGCCTCACACTC (5mC at 7): 8870 a.u.
GAGGCCGAGCACGCCCAGCCTCCTGGCTGGGCGTGCTCGGCCTCACACTC: 9860 a.u.
GAGGCCGTCCACGCCCAGCCTCCTGGCTGGGCGTGGACGGCCTCACACTC: 9010 a.u.
GAGGCCGACCGCGCTCAGCCTCCTGGCTGAGCGCGGTCGGCCTCACACTC: 8010 a.u.
GAGGCCGACCACGCCGAGCCTCCTGGCTCGGCGTGGTCGGCCTCACACTC: 9840 a.u.
GAGGCCGACGACGCCCAGCCTCCTGGCTGGGCGTCGTCGGCCTCACACTC: 8510 a.u.
GAGGCCGAACGCGCCCAGCCTCCTGGCTGGGCGCGTTCGGCCTCACACTC: 8270 a.u.
GAGGCCCACCGCGCCCAGCCTCCTGGCTGGGCGCGGTGGGCCTCACACTC: 9050 a.u.
GAGGCCGACCACCCCCAGCCTCCTGGCTGGGGGTGGTCGGCCTCACACTC (5mC at 13): 8810 a.u.

Block 4 — method: RNA Bind-n-Seq; form: RNA; sample: in vitro; tested at: 365 nM; relative to: no-protein control; reading: higher = stronger binding; measurement: RBNS enrichment (R)
Target: RNA binding protein fox-1 homolog 2, RRM domain, GST-SBP tag (RBFOX2, Homo sapiens, UniProt O43251-10, residues 100-194)
Setting: natural RNA segment, single round, ends assumed
Constant ends, left off below: GGGAGUUCUACAGUCCGACGAUC … UGGAAUUCUCGGGUGCCAA
Residues (chain): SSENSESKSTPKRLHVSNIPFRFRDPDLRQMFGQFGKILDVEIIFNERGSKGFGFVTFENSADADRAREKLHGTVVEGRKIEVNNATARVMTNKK
GGAGCAGCCGGCCUGUGACACCUGAAGCCGCCAGCUCGCCACAGGGGCCAGGGAGCUGGAGAUGGCCUCCAGCGUCAGUGCCAAGACUGAGCGGGCCCUCCAGUGUUGUC: 0.501
AGAUGCUUGCAAGCAGAGUCAGGGUCACCAGUGAAUGCCACAAAAGUUCUCUUUCCCACUGUUUAAUUUGACAAGAGAAGAAUUUGAAGGAUAUGAACAUUUUCAAGAAC: 0.954
GGCUGCCUGCAGGCUCCCGUUUUCUGAGCCCACGCUGCCCACAGCUGACCCCAGCGCAGCCCCGGGCACGCGGCACUUUACAUGGGGGCAGCUUGGGCCCAGACUCCUCC: 0.388
GGAGGCCACAAUGCCAAGGUUCCCUAGUGUGUUUUUCUUUGUUGGUUCUUAAAAUUAUCAACCUUUGUUACGGAUGGGCCUCCACUAGGUGGCUGUGGGUAAAGUCUUGG: 0.553
CUCAGACAGGUACUAUUUGUAAGUAGCAUAGACAGCAGGGGGGUGGGGUGGUCAACCUGUGUCCCCUCUGAGCCGUUAUGCCAAAGGUCACUAAGGACAUUUAGAAUCCC: 0.204
AAUCACUCAGUUCUUGGAAAAGUCAAACAACGUGGUGGACAUUUUGUCACAUUUUAGAAGCAGUCAGAUUCCCCCAAACGGCACGUGAACCUGAGUGCGGAUACUGCAAU: 0.315
GUGCAUUCAUCUUUAGGUGACUGAAUGUUAAGAAAUCUGUGUGCAUAGUUACUAAGUUUUUAUGAACUGUUGUGUCCUGUUAAUGCAUAUUGCCCUGUGACUCCAGUAUA: 0.369
GACUUAGCCUCAAAUUGGUGUUUUUCUUUCCCAAGAAUUCAUCUUAAGGGUUAGCUUUGAGUAUGUUACUGUCCUUCUAUGACAAGACCAAAGGAACAAACUCCUUGGUG: 0.291
AUACUCUAUGGUAGAACUAAGGCCUUUCCUUUCUUGGCCAAAGUCUUUACCCUAUUUAACCCUUUGUAUAUUUCUGACUGCUCACUGUUCAUAUUAUAGGGGACCAGAUU: 0.423
GCCCUGAUGCGGUAGAGGGGCAUCCUCUGGCCUUUGUGAGCUGUAGGGAUGCAGAGUCUGAUGCCAGCGUCUUGCUGGGGGAGUGGCCUAGAAGGGGAUCCUAACAGGGA: 0.666
GGAUUACAGGAACCCACCACCACGCCCAGCUAAUUUUUGUAUUUUUAGUAGAUGGGGUUUCAUCAUGUUGGCCAGGCUGGUUUUGAACUCCUGACUUCAAAUGAUCCACC: 0.492
AUCCAGAGGCAAACGGAGGCAAAGCUGGCUCACCUUCCGCACGCGGAUUAAUUUGCAUCUGAAAUAGGAAACAAGUGAAAGCAUAUGGGUUAGAUGUUGCCAUGUGUUUU: 0.59

Repeated from above (block 3):
GAGGCCGAGCACGCCCAGCCTCCTGGCTGGGCGTGCTCGGCCTCACACTC: 9860 a.u.
GAGGCCGTCCACGCCCAGCCTCCTGGCTGGGCGTGGACGGCCTCACACTC: 9010 a.u.
GAGGCCGACCGCGCTCAGCCTCCTGGCTGAGCGCGGTCGGCCTCACACTC: 8010 a.u.
GAGGCCGACCACGCCGAGCCTCCTGGCTCGGCGTGGTCGGCCTCACACTC: 9840 a.u.
GAGGCCGACGACGCCCAGCCTCCTGGCTGGGCGTCGTCGGCCTCACACTC: 8510 a.u.
